Measurements collected from several papers.
Parts stem from different laboratories: compare values within a part only. Changes are numbered by the printed parent chain.

Series 1 — technique: RNA Bind-n-Seq; molecule type: RNA; sample: in vitro; concentration: 200 nM; setting: whole 134-nt RNA, ends assumed; together with: 150 mM LiCl; relative to: input library; direction: higher = stronger binding; all molecules: 7-deaza-guanosine replaces G
Target: Fragile X messenger ribonucleoprotein 1, C-terminal low-complexity region (Fmr1, Mus musculus, UniProt P35922)
All sequences stand within: GGGAGUUCUACAGUCCGACGAUC … UGGAAUUCUCGGGUGUCAAGG
Strand	log2 enrichment
CAAGUCCUGUGCUACACAUCGUAUGUACCGAAUCGGGGUGGGGAAAGGGGAGGGGAAAGUAUUAUGUUACGCCGUUCGGAUCUGCACUUC	-0.298
AGUCCUGUGCUACACAUCGUAUGUACCGAAUCGGUUUGGUUUUUUUGGAAAAAAAGGAAAGUAUUAUGUUACGCCGUUCGGAUCUGCACU	-2.6
UGGGAGGUGGAUUUUGUUUAUUUUUUUAGCUCAUUUCCAGGGGUGGGAAUUUUUUUUUAAUAUGUGUCAUGAAUAAAGUUCUUUUUGAAA	-0.225
CACAGAGAACACGCACCCACACAGACACAGAGGGAAGGGGUUGGGAUGGGGACAGGGUGCACAGCAGGGCGGGGUAGGACCCCAGCCCCU	0.973
GCAGGAAGUAAAAACAAAUGGAAAUGCUUCGGAUAGUGGCAGGGGUGGGGGUUGCUACGGAAAGGGUGGGAUGGGAGUGGGUAAAGAGUU	1.48
AGUCCUGUGCUACACAUCGUAUGUACCGAAUCAAAUUUAAAUUUUUAAAUUUUUAAAAAAGUAUUAUGUUACGCCGUUCGGAUCUGCACU	-3.44
UCCUGUGCUACACAUCGUAUGUACCGAAUCGGGAAAAAAGGGAAAAAAGGGGAAAAAAGGAAAGUAUUAUGUUACGCCGUUCGGAUCUGC	-0.684
UGUGCUACACAUCGUAUGUACCGAAUCGGGGUUUUUUUGGUUUUUUUGGGGUUUUUUUGGGGAAAGUAUUAUGUUACGCCGUUCGGAUCU	1.33
CCUCAAGUCCUGUGCUACACAUCGUAUGUACCGAAUCGGAAAGGAGGAAAGGAAAGUAUUAUGUUACGCCGUUCGGAUCUGCACUUCCAG	-0.453
UCCUCAAGUCCUGUGCUACACAUCGUAUGUACCGAAUCGGAGGAAAGGUGGAAAGUAUUAUGUUACGCCGUUCGGAUCUGCACUUCCAGC	-1.92
CUGUGCUACACAUCGUAUGUACCGAAUCGGGGUUUUUUUGGGUUUUUUUGGUUUUUUUGGGAAAGUAUUAUGUUACGCCGUUCGGAUCUG	0.505

Series 2 — target: DBP, bZIP domain (human); technique: DHFR protein complementation; sample: yeast; relative to: wild-type JUN-FOS pair; direction: higher = stronger binding
Setting: single substitutions, most at no-binding floor
Starting sequence: JUN, bZIP domain (human); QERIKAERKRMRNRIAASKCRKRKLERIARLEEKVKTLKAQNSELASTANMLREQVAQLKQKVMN; partner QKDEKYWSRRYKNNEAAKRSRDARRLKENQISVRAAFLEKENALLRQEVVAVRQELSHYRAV
Substitution	binding fitness [natural log]
A29T	-1.38
K39Q	-1.45
K36H	-1.39
M51L	-1.51
E54A	-1.37
R53C	-1.48
A29G	-1.44
E54H	-1.4
E33I	-1.56
Q41L	-1.52
E33W	-1.5
A40R	-1.49
A40Q	-1.53

Series 3 — target: CCNB3, cyclin fold, Cln2 fusion (human); technique: yeast growth competition, sequencing; sample: yeast; setting: strong parent motif; relative to: not given; direction: higher = stronger binding
Starting sequence: BRCA2 docking peptide (human); PSIKRNLLNEFDR
Substitution	normalised enrichment score
R13Q	0.943
N9I	1.91
R5Q	0.435
F11A	0.163
R5A L7A	0.0547
N6V	0.416
R13S	1.34
N6R	0.417
R13V	0.582
E10T	-0.725
L7Q	-0.124
P1R	1.99
P1S	1.06

Series 4 — technique: protein binding microarray; molecule type: double-stranded DNA, one strand shown; sample: in vitro; concentration: not given; relative to: not given; direction: higher = stronger binding
Target: Histone acetyltransferase KAT6A, winged helix 2, GST fusion (KAT6A, Homo sapiens, UniProt Q92794, residues 85-181)
Setting: 8-mer, flanks averaged, mean of 2 arrays, mostly near background
Target sequence (chain): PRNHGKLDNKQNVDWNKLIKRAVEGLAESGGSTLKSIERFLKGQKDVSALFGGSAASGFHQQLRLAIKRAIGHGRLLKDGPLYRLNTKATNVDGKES
Strand	E-score
ACTTACGA	-0.0946
ACAGGCTG	-0.0794
AACATAAC	0.0193
CTAGTCCA	-0.0563
CCCAGTCA	-0.074
AGTAATCA	-0.0944
CCCGTGGA	0.113
AACGGGTG	-0.0686
CCATCAAG	-0.084
GGTCAGCA	-0.00362
CCGGCGCA	0.172
GGAATTCA	0.0276
CTAGTAGA	0.0319
ACGTACAC	-0.123
CACTTTAC	-0.203
AAGTGGGA	0.1
ACGTCCGG	-0.0549
CTCATCTA	-0.12
CTGTCTAA	0.0895

Series 5 — technique: RNA Bind-n-Seq; molecule type: RNA; sample: in vitro; concentration: not given; setting: RNA with constant flanks, ends assumed; relative to: input RNA pool; direction: higher = stronger binding
Target: RING finger protein unkempt homolog, zinc fingers 1-6, GST-SBP tag (UNK, Homo sapiens, UniProt Q9C0B0, residues 30-357)
All sequences stand within: GGGAGUUCUACAGUCCGACGAUC … CAACAGAGGAUUGAGCAUCA
Construct (chain): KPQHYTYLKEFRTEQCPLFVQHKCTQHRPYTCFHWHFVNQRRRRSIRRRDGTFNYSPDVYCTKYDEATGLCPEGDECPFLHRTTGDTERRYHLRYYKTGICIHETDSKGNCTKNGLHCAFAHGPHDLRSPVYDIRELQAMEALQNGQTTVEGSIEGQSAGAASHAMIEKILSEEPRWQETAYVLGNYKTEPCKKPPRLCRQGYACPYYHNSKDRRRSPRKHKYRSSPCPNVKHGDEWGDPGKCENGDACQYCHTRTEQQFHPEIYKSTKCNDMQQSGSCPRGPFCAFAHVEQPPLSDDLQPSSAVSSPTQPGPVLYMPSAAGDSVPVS
Strand	bound/input enrichment [ratio]
UGUGACAAGCUUUAUACUUGCCGCUUGUGUCAUGAUAACAAUGAAGAUCAUCAACCCGAUCGCUUUAAAGUGAAGGAAGUGCAGUGCAUAAACUGUGAAAAAAUUCAACAUGCCCAACAG	0.0729
ACAAUUGCUUUGCUUGGUUACCUGAAACACUACCGAAAUAUUCCUGGACCUCACAUGGUUUCCGUUCCAAAGUCUACUUUACACAACUGGAUGAAUGAAUUUAAACGAUGGGUCCCAUCU	0.146
GGUUUAAACUUUUAAUUCUGUAUUUCAUGAUUAUAAGUCUUGCUAGAAUUUUUUCUAAUCUUCCGCCGAUUUGAUUAAAUAAUGAUUCACAGAAUUUAGUAACAGAAUCAAACUAAGCCA	0.96
CCGGCCGCACAACUACCUCAGCGCAGCGGUUGCUGCAGCGGCCCCAGGGCUUUAAACUGCCACCGGGCGCCCCCUUGAGGUUGCUUCACCCGCUGACCAUGUUCCAGCGCUUCACCAGCC	0.141
CAAACGUUGUUGGGAAUAAUUGUGAGGAUGAAGUUUUUGCUGCUGCAGCAGAAGUACCCCGAAUACCUGGAGGAUGGCAAGGUCCUGGAGGCACUUCAAGUUCUACGCUGUGAAUUGACG	0.313
GUCCCGGACCGCAGUGUUAAAAAGACCUGAACACAUUUGCUGAAACCUCUUGCUGUGAGACCGCAGAACUUUUGAGCAGGUUUCUCUACACAUAAAAAUCUUUUCAAAAAUACGGAGAAG	0.249
ACACCUUUGUUUCUUGCUGCCCGAGAGGGAAGUUAUGAAGCGGCCAAAAUCCUGUCCGACCAUUUUGCCAACCGGGACAUCACUGACCACAUGGACCGCCUUCCCCGGGAUGUGGCUCGG	0.116
UGGCAGAUAUUCAAAACGUCAGCAACCAAAGGCACCGGCCUUGAUGAGGCAAUGGAAUGGUCCGUUGAAACAUUAAAAAGCAGACAGUAAUUCAGUCCAUUCUUCUCCCCUGAAAUGAAG	0.179

Series 6 — technique: RNAcompete; molecule type: RNA; sample: in vitro; concentration: 20 nM; setting: 7-mer, probes averaged, single round; relative to: mean of 7-mers; direction: higher = stronger binding
Target: PABPC1L2, full length, GST fusion (mouse, UniProt A0ABA7IW68)
Residues (chain): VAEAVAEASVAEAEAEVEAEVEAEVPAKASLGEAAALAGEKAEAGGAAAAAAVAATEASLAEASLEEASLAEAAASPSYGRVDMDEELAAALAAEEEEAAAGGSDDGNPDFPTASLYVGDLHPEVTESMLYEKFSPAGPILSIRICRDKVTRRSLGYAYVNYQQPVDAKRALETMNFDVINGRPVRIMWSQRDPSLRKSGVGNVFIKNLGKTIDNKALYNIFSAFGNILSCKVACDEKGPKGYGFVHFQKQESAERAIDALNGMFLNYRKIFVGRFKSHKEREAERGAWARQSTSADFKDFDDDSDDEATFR
Strand	7-mer Z-score
GGCGCUG	0.0189
GGUAUAA	0.269
AUCCGGU	-0.188
AAAAUAA	4.28
CGUCCAU	-0.289
UGCUGAG	-0.0772
GAGGCAA	0.476
GCUAUAU	-0.0971
GCAACUG	-0.135
AUCGUGG	-0.122
AGGUUAC	-0.0301
CCACCAU	-0.253
GCUACGC	-0.224
CUUAUCU	-0.374
AACAACG	0.811
CUAUCUC	-0.248
GAAUGGU	-0.17
CCUCUAU	-0.208
UGGUUCA	-0.18
AGUAAGA	0.017
CCGACUA	-0.228
GCACUUC	-0.242
AUCGUUG	-0.199
GUGUUCG	-0.467

Series 7 — technique: DHFR PCA, deep sequencing; sample: yeast; together with: (+)-ABA 17 µM; relative to: wild-type fitted maximum; direction: higher = stronger binding
Target: ABI1, truncated, D143A, DHFR fusion (Arabidopsis thaliana)
Setting: methotrexate growth selection, single substitutions
Starting sequence: PYL1, truncated, DHFR fusion (Arabidopsis thaliana); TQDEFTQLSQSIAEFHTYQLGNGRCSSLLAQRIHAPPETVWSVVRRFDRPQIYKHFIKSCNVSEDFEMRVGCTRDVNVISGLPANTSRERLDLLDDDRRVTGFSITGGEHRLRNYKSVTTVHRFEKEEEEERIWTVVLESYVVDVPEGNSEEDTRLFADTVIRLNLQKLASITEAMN; partner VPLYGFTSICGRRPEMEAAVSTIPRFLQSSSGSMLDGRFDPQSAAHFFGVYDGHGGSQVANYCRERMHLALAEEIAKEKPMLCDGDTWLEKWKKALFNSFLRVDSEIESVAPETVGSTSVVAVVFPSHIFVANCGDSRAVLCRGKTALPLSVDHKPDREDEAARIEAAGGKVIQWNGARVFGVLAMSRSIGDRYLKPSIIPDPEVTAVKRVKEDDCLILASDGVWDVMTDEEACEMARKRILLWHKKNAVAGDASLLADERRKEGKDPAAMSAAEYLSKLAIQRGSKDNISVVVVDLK
Substitution	relative binding score [%]
G108E	-10.3
E127D	98.5
R99M	103
T39D	76
T86R	67.6
R98E	44.5
C60A	52.9
N61P	3.64
F124D	96.1
R24I	64.6
K58E	67.3
K116P	-23.6
P50M	-3.46

Further values, each from its own experiment
Substance	target	assay	system	setting	scale	measurement	value
PhoQ, residues 284 288 289 292 302 303 MLMVEA	PhoP, residues 12 14 15 18 19 LHSVQ (Escherichia coli, UniProt P23836)	Sort-seq, item: YFP reporter	E. coli	PhoQ-PhoP variant library, together with: 10 µM Mg2+	relative to: high Mg2+ state, higher = stronger signaling	fold induction	26.5
